{"data": "Earlier results as cited in several papers", "Slc6a3": "Sodium-dependent dopamine transporter (Slc6a3, Rattus norvegicus, UniProt P23977)", "SLC6A4": "Sodium-dependent serotonin transporter (SLC6A4, Homo sapiens, UniProt P31645)", "Histamine H3 receptor": "Histamine H3 receptor (Cavia porcellus, UniProt Q9JI35)", "note": "Each line is one published result; not all experiments were run side by side. ± gives the spread as reported.", "chain of UniProt P23977 (whole entry, looked up)": "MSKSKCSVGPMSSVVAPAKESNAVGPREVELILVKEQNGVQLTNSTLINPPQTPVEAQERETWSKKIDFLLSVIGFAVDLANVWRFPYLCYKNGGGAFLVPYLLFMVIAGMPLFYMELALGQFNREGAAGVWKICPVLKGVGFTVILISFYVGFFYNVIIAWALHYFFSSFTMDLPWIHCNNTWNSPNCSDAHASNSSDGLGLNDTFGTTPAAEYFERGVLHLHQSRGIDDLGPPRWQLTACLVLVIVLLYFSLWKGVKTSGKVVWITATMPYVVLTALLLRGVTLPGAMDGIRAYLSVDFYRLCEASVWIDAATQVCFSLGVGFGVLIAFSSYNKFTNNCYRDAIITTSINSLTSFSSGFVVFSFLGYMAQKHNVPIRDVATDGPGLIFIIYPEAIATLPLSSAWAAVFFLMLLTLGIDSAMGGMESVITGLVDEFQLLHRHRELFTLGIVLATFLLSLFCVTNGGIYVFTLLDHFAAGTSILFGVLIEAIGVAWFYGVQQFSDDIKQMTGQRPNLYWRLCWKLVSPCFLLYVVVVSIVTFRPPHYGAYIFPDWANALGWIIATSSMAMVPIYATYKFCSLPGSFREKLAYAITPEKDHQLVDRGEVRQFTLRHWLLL", "chain of UniProt P31645 (whole entry, looked up)": "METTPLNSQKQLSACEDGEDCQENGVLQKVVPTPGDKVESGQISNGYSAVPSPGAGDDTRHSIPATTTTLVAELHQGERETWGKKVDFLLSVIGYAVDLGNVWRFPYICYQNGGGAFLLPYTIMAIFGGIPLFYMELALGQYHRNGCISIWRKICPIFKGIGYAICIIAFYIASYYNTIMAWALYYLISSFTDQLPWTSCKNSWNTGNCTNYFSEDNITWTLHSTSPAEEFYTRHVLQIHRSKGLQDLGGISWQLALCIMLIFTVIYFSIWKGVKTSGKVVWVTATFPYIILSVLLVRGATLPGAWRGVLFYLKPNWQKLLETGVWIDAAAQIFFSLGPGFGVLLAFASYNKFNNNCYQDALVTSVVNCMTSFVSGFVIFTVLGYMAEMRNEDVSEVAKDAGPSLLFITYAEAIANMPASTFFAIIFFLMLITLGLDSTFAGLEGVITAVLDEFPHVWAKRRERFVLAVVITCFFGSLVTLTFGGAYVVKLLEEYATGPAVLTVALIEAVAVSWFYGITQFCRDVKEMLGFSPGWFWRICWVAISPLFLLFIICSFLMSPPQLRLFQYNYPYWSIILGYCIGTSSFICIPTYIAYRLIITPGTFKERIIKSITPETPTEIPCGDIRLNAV", "chain of UniProt Q9JI35 (whole entry, looked up)": "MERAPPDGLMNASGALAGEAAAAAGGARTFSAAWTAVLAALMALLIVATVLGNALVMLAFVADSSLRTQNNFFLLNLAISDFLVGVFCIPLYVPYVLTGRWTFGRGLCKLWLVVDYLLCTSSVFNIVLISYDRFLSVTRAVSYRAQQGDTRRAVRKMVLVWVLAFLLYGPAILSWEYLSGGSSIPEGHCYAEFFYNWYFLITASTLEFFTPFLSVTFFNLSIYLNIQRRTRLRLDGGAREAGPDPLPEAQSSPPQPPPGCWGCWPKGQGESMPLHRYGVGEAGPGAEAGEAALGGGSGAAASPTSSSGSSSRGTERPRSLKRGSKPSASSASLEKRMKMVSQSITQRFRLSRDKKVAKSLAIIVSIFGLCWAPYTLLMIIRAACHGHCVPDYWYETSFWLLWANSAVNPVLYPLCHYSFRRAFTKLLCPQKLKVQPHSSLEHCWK", "chain of UniProt Q05940 (whole entry, looked up)": "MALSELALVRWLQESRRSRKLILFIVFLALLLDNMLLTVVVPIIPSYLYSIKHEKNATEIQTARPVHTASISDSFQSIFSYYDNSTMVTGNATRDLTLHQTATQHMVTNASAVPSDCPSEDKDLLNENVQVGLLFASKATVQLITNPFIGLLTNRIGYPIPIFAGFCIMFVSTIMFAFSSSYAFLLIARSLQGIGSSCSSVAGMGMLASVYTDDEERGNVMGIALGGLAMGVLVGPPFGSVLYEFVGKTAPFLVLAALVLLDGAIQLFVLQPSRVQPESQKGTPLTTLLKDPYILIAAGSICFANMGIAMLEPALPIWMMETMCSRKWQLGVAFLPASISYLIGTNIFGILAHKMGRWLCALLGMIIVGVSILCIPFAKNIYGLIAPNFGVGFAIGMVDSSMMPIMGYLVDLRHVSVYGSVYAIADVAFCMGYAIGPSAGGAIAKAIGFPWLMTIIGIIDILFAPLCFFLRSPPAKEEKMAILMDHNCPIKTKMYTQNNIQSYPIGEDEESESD", "chain of UniProt P47746 (whole entry, looked up)": "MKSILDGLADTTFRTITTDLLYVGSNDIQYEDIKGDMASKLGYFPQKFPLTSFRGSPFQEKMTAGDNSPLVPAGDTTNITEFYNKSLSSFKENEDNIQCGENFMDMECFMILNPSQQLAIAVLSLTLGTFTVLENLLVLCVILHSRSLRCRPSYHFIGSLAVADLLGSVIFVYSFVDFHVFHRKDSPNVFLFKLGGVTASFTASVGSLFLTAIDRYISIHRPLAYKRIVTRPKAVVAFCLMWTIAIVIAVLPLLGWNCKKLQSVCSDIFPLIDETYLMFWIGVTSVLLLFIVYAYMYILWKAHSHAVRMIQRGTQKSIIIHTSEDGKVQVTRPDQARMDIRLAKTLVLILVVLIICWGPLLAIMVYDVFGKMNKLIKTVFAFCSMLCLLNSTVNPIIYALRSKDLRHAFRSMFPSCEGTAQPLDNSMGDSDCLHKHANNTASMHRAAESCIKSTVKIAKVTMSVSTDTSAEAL"}
{"SMILES": "Cc1ccc(C(=O)C(C)NC2CC2)cc1Cl (centres unmarked)", "target": "Slc6a3", "assay": "dopamine uptake, inhibitor", "test system": "rat brain synaptosomes", "endpoint": "IC50", "value": "592 ± 31 nM"}
{"SMILES": "CCCC(NC)C(=O)c1ccccc1 (centres unmarked)", "target": "SLC6A4", "assay": "[3H]serotonin uptake, inhibitor", "test system": "HEK293 expressing SLC6A4", "endpoint": "IC50", "value": "9000 ± 2300 nM"}
{"SMILES": "CNC(C)C(=O)c1ccc(C)cc1 (centres unmarked)", "target": "Slc6a3", "endpoint": "IC50", "value": "762 ± 79 nM"}
{"SMILES": "CNC1(c2ccccc2Cl)CCCCC1=O (racemic)", "target": "α3β4 nicotinic acetylcholine receptor", "assay": "non-competitive inhibitor", "endpoint": "IC50", "value": "9500 nM"}
{"SMILES": "CN1C/C(=C\\c2ccc(Cl)cc2Cl)C/C(=C/c2ccc(Cl)cc2Cl)C1", "target": "alpha7 nicotinic acetylcholine receptor", "assay": "binding", "conditions": "together with: [3H]methyllycaconitine", "endpoint": "Ki", "value": "> 100000 nM"}
{"SMILES": "C=CCN(CC=C)CCc1c[nH]c2ccc(F)cc12", "target": "Histamine H3 receptor", "endpoint": "Ki", "value": "2090 nM"}
{"SMILES": "CCCC(C(=O)c1ccc2c(c1)OCO2)N1CCCC1 (centres unmarked)", "target": "Slc6a3", "assay": "uptake", "test system": "rat brain synaptosomes", "endpoint": "IC50", "value": "4.1 ± 0.5 nM"}
{"SMILES": "CC[C@H]1C[C@H]2C[C@H]3c4[nH]c5ccc(O)cc5c4CCN(C2)[C@@H]13", "target": "Synaptic vesicular amine transporter (SLC18A2, Homo sapiens, UniProt Q05940)", "assay": "radioligand binding", "test system": "human striatal homogenate", "endpoint": "IC50", "value": "29500 nM"}
{"SMILES": "CCCC(NC)C(=O)c1ccc2c(c1)OCO2 (centres unmarked)", "target": "SLC6A4", "assay": "[3H]serotonin uptake, inhibitor", "test system": "HEK293 expressing SLC6A4", "endpoint": "IC50", "value": "810 ± 140 nM"}
{"SMILES": "N#Cc1ccc(-c2cc(O)c(=O)[nH]c2-c2ccc(F)cc2)cc1", "target": "Polymerase acidic protein, endonuclease domain (PA, Influenza A virus, UniProt C3W5S0)", "assay": "inhibitor", "endpoint": "IC50", "value": "136 nM"}
{"SMILES": "CCCCCn1cc(C(=O)c2cccc3ccccc23)c2ccccc21", "target": "Cannabinoid receptor 1 (Cnr1, Mus musculus, UniProt P47746)", "assay": "EPSC suppression", "test system": "autaptic hippocampal neurons", "endpoint": "IC50", "value": "14.9 nM"}
{"SMILES": "CNC(C)C(=O)c1ccc2c(c1)OCO2 (centres unmarked)", "target": "Slc6a3", "endpoint": "IC50", "value": "1230 ± 133 nM"}
{"SMILES": "Oc1c(Cl)cc(Cl)c2cccnc12", "target": "Replicase polyprotein 1ab, papain-like protease (rep, Severe acute respiratory syndrome coronavirus 2, UniProt P0DTD1)", "assay": "PLpro inhibition, inhibitor", "conditions": "ISG15 binding", "endpoint": "IC50", "value": "< 10000 nM"}
{"SMILES": "C=CCN(CC=C)CCc1c[nH]c2ccccc12", "target": "Histamine H3 receptor", "assay": "binding", "conditions": "together with: [3H]α-methylhistamine", "endpoint": "Ki", "value": "> 10000 nM"}
{"note": "Repeated from above:"}
{"SMILES": "N#Cc1ccc(-c2cc(O)c(=O)[nH]c2-c2ccc(F)cc2)cc1", "target": "Polymerase acidic protein, endonuclease domain (PA, Influenza A virus, UniProt C3W5S0)", "assay": "inhibitor", "endpoint": "IC50", "value": "136 nM"}
{"SMILES": "CCCCCn1cc(C(=O)c2cccc3ccccc23)c2ccccc21", "target": "Cannabinoid receptor 1 (Cnr1, Mus musculus, UniProt P47746)", "assay": "EPSC suppression", "test system": "autaptic hippocampal neurons", "endpoint": "IC50", "value": "14.9 nM"}
